Measured values of several laboratories.
Lines come from different studies, so protocols differ. ± marks the error that the study gave.

Cc1cc(NC2CCc3cc(Cl)ccc3C2)n2nc(C(C)(F)F)nc2n1 (stereo not drawn)  Tmax (NSG mouse, whole blood; oral, 30 mg/kg): 2 h
CN1CCCC1CCNS(=O)(=O)c1ccc2c(c1)CN(CC1CCCCC1)CC2 (stereo not drawn)  Tmax (mouse, brain; oral, 10 mg/kg): 2 h
O=c1c2cc(Cl)c(CO)cc2[nH]c(=S)n1Cc1cccnc1  Tmax (mouse, plasma; oral, 50 mg/kg): 0.25 h
Cc1c(C(=O)O)ccc2c3n(nc12)[C@@H]1[C@H](C3)N(CC2CC2)[C@@]2(C(=O)Nc3cc(Cl)ccc32)[C@H]1c1cccc(Cl)c1F  Tmax (female BALB/c nude mouse, SJSA-1 xenograft, plasma; oral, 1 mg/kg twice daily, 2 doses): 9 h
CN[C@H](CC(C)C)C(=O)N[C@H]1C(=O)N[C@@H](CC(N)=O)C(=O)N[C@H]2C(=O)N[C@H]3C(=O)N[C@H](C(=O)N[C@H](C(=O)O)c4cc(O)cc(O)c4-c4cc3ccc4O)[C@H](O)c3ccc(c(Cl)c3)Oc3cc2cc(c3O[C@@H]2O[C@H](CO)[C@@H](O)[C@H](O)[C@H]2O[C@H]2C[C@](C)(N)[C@H](O)[C@H](C)O2)Oc2ccc(cc2Cl)[C@H]1O  Tmax (C57BL/6N mouse H2, faeces; po, 0.5 mL, 20 mg/mL solution): 20 h
CN1CCC[C@H](CN2c3ccccc3Sc3ccccc32)C1.Cl  Tmax (fasted female ICR mouse, eye; oral, 16 mg/kg): 2 h
O=C(O)C[C@H](O)C[C@H](O)/C=C/c1c(C2CC2)nc2ccccc2c1-c1ccc(F)cc1  Tmax (FVB wild-type mouse, plasma; oral, 5 mg/kg, with: rifampin 20 mg/kg oral): 1.4 h
FC(F)(F)Oc1ccc(Nc2cc(-c3cn[nH]c3)ncn2)cc1  Tmax (male BALB/c mouse, plasma; oral, 20 mg/kg): 3 h
O=C1CCC(N2Cc3cc(CO)c(F)cc3C2=O)C(=O)N1 (stereo not drawn)  Tmax (male CD-1 mouse, plasma; oral, 10 mg/kg of parent drug): 1.2 ± 0.7 h
Cc1ncccc1-c1cnc(NCc2c(F)ccc3c2CCO3)n2cnnc12  Tmax (female CB17 SCID mouse, HT-1376 xenograft, plasma; 75 mg/kg, day 1): 1 h
Cc1cc(NC2Cc3cc(F)c(F)cc3C2)n2nc(C(C)(F)F)nc2n1  Tmax (NSG mouse, whole blood; oral, 30 mg/kg): 2 h
CCOC(=O)C1=C(CN2CCC[C@@H]2C(=O)Nc2ccc(B(O)O)cc2)NC(c2nccs2)=N[C@H]1c1ccc(F)cc1Br  Tmax (ICR mouse, plasma; oral, 10 mg/kg): 0.33 ± 0.14 h
CC(=O)N(C)C1CCN(c2cc(F)cc(NC(=O)c3cc4c(F)ccc(C)c4[nH]3)c2)C1 (stereo not drawn)  Tmax (CD1 mouse; oral, 50 mg/kg): 1.3 h
Cc1cc(N[C@H]2CCc3ccc(Cl)cc3C2)n2nc(C(C)(F)F)nc2n1  Tmax (NSG mouse, whole blood; oral, 30 mg/kg): 4 h
CCn1ncc2c(Nc3ccc(OC(F)(F)F)cc3)ncnc21  Tmax (male BALB/c mouse, plasma; oral, 20 mg/kg): 0.5 h

Repeated from above:
Cc1cc(NC2Cc3cc(F)c(F)cc3C2)n2nc(C(C)(F)F)nc2n1  Tmax (NSG mouse, whole blood; oral, 30 mg/kg): 2 h
Cc1ncccc1-c1cnc(NCc2c(F)ccc3c2CCO3)n2cnnc12  Tmax (female CB17 SCID mouse, HT-1376 xenograft, plasma; 75 mg/kg, day 1): 1 h
